Published values of several laboratories.
± marks the error that the study gave.
Complement C3: Complement C3 (Homo sapiens, UniProt P01024)
Sequence of UniProt P01024 (whole entry, looked up): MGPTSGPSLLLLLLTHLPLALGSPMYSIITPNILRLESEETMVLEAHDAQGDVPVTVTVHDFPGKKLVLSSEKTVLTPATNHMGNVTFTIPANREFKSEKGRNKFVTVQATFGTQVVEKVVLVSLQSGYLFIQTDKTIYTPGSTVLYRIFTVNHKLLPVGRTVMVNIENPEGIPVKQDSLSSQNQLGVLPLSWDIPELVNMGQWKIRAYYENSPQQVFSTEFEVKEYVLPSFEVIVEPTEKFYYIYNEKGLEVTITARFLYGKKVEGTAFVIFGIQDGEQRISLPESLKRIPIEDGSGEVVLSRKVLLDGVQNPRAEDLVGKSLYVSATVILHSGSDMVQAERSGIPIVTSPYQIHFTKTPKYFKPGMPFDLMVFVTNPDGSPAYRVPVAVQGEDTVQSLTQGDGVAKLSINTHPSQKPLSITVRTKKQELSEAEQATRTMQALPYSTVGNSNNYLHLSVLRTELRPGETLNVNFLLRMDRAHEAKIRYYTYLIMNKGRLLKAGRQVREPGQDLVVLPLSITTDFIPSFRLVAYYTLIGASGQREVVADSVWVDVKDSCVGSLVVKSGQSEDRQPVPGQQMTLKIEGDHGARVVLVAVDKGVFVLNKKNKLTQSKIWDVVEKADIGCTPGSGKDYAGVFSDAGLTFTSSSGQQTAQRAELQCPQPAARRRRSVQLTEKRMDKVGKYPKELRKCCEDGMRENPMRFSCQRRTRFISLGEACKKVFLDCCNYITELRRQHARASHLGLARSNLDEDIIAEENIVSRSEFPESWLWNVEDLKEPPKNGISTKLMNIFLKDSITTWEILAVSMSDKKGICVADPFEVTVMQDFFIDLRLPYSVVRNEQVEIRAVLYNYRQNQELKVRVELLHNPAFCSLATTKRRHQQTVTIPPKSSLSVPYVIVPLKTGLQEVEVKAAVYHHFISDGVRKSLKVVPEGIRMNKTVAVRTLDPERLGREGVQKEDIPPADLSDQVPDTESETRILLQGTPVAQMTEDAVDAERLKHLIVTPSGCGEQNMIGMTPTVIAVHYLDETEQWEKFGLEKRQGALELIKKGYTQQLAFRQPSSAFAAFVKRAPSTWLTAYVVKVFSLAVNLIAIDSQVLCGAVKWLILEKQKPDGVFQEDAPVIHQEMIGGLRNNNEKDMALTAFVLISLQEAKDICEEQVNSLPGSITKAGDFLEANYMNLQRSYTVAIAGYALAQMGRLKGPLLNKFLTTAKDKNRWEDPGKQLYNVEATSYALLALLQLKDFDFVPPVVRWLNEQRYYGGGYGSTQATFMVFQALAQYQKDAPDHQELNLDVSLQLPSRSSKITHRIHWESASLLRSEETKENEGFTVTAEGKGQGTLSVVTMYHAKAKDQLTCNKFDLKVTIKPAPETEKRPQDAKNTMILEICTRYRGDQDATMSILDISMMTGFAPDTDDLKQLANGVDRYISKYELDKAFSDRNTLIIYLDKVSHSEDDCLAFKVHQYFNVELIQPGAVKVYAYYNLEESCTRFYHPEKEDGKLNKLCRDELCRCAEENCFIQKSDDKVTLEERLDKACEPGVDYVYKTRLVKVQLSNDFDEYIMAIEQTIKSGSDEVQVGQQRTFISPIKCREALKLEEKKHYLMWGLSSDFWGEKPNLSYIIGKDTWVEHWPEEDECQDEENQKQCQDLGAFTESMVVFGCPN
lecA: PA-I galactophilic lectin (lecA, Pseudomonas aeruginosa, UniProt Q05097)
Sequence of UniProt Q05097 (whole entry, looked up): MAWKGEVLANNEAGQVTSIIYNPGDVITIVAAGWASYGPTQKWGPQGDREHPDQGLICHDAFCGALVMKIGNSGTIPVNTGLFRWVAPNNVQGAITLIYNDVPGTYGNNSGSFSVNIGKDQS
Histone chaperone ASF1A: Histone chaperone ASF1A (Homo sapiens, UniProt Q9Y294)
Sequence of UniProt Q9Y294 (whole entry, looked up): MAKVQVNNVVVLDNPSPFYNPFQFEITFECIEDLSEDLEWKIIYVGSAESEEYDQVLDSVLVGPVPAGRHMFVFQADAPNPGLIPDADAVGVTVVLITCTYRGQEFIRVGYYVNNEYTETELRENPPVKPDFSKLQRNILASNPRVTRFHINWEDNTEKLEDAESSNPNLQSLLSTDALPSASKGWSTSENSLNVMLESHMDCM
YWHAZ: 14-3-3 protein zeta/delta (YWHAZ, Homo sapiens, UniProt P63104)
Sequence of UniProt P63104 (whole entry, looked up): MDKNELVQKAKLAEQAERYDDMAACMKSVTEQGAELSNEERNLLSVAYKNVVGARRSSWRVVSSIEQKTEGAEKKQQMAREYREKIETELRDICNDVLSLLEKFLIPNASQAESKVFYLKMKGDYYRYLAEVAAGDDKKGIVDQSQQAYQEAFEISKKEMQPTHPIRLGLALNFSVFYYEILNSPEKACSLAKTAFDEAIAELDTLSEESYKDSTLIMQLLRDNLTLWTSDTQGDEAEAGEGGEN
Sequence of UniProt O14786 (whole entry, looked up): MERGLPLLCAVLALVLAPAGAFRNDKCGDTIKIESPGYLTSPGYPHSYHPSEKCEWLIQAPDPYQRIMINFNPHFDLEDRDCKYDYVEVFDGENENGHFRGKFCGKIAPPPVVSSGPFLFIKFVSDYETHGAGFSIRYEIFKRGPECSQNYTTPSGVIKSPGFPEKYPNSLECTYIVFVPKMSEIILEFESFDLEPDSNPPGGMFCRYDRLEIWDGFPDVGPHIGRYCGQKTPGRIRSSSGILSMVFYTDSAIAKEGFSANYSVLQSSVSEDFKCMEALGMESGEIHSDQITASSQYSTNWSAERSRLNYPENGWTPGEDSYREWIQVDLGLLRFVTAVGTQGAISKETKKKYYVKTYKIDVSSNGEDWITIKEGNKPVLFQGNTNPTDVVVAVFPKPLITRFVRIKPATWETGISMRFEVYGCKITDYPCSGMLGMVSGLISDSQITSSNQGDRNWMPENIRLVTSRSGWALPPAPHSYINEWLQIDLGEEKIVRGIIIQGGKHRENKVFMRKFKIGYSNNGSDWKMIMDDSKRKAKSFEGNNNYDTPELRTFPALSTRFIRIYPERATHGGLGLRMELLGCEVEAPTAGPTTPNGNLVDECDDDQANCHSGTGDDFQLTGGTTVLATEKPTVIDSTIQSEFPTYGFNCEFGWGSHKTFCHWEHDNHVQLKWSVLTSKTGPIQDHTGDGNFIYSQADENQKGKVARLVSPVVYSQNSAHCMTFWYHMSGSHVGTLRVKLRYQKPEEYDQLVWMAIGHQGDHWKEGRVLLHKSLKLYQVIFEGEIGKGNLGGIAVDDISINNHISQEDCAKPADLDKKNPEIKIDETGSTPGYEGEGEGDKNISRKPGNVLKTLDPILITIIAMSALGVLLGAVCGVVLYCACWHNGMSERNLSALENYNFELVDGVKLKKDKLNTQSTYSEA
Sequence of UniProt P62993 (whole entry, looked up): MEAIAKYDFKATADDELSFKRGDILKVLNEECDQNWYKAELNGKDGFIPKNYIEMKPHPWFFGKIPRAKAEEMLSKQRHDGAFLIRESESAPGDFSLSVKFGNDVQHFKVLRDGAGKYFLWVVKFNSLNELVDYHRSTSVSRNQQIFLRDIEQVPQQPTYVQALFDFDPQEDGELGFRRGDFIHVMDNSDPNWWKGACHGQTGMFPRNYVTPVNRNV
Sequence of UniProt P37023 (whole entry, looked up): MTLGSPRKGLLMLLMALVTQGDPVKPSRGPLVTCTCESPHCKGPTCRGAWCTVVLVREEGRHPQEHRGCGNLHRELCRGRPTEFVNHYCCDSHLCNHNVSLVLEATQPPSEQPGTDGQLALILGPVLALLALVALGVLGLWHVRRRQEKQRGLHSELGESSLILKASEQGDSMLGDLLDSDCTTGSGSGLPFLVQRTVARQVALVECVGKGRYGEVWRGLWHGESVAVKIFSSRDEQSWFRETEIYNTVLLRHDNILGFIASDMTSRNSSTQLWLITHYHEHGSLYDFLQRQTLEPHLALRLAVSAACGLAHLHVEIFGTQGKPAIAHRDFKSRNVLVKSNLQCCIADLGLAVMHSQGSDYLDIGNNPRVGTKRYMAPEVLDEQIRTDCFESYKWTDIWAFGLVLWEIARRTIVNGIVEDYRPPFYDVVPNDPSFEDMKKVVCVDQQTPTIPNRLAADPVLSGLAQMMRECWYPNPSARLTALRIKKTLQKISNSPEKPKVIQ
Sequence of UniProt Q15109 (whole entry, looked up): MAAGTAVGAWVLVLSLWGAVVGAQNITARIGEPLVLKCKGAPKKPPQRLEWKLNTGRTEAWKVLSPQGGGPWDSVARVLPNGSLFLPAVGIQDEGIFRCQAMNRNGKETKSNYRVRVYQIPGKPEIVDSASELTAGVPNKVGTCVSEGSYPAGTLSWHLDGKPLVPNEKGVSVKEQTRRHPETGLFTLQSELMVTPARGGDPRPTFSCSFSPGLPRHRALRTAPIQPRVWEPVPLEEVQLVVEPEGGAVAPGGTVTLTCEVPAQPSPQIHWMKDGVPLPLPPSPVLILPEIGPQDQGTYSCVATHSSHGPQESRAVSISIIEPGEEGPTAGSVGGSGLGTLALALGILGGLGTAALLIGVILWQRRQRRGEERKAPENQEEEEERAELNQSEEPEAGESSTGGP
Sequence of UniProt Q9HAT8 (whole entry, looked up): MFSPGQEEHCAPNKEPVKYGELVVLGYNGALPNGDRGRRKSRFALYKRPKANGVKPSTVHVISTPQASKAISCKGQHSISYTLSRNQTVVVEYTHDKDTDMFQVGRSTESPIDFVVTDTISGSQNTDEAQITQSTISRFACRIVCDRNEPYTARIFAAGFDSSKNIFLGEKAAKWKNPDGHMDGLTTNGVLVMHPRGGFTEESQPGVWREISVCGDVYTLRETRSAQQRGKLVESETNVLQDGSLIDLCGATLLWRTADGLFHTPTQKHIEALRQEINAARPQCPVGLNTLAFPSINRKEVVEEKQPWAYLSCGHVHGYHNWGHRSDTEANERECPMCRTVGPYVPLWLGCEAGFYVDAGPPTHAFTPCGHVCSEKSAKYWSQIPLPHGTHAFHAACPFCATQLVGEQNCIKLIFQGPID
Sequence of UniProt P83916 (whole entry, looked up): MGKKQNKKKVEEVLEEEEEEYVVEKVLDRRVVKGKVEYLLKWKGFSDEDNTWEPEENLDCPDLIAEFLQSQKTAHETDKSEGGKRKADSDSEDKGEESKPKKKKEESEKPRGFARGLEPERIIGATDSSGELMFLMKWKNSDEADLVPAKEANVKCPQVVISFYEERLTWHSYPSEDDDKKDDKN

SMILES | target | test | system | conditions | Kd [µM]
CC(C)[C@@H]1NC(=O)[C@@H](NC(=O)[C@@H](N)Cc2c[nH]c3ccccc23)CSSC[C@@H](C(=O)N[C@@H](Cc2c[nH]c3ccccc23)C(N)=O)NC(=O)[C@H](CCCNC(=N)N)NC(=O)[C@H](CC(N)=O)NC(=O)[C@H]([C@@H](C)O)NC(=O)CNC(=O)[C@H](Cc2c[nH]c3ccccc23)NC(=O)[C@H](CC(=O)O)NC(=O)[C@H](CCC(N)=O)NC(=O)[C@H](Cc2c[nH]c3ccccc23)NC1=O | Complement C3 | surface plasmon resonance | – | 25 °C, two-state reaction model | 0.76
[N-]=[N+]=N[C@H]1[C@H](O)[C@@H](O)[C@H](n2cc(CO[C@@H]3O[C@H](CO)[C@H](O)[C@H](O)[C@H]3O)nn2)O[C@@H]1CO | lecA | binding, ITC | – | – | 6.2
C[n+]1cc2cc3cc(ccc31)NC(=O)CCCCC(=O)Nc1ccc3c(c1)cc(c[n+]3C)C(=O)NCc1cccc(c1)CNC2=O | Pu22 G-quadruplex DNA | microscale thermophoresis | – | – | 3.45 ± 0.38
O=c1c(Br)c2oc3c(CN(Cc4ccccn4)Cc4cnccn4)c(O)c(Cl)cc3nc-2c2ccccc12 | zinc ion | fluorescence titration | – | pH 7.0, 25 °C | 0.0007
CC[C@H](C)[C@@H]1NC(=O)[C@H](Cc2ccc(OC)cc2)NC(=O)CC2(CCCCC2)SSC[C@@H](C(=O)N2CCC[C@H]2C(=O)N[C@@H](CCCN)C(=O)N[C@@H](Cc2ccc(O)c(I)c2)C(N)=O)NC(=O)[C@H](CC(N)=O)NC(=O)[C@H]([C@@H](C)O)NC1=O | Oxytocin receptor (OXTR, Homo sapiens, UniProt P30559) | binding, radioligand | – | cell membranes | 9.2e-05
C[n+]1ccc(/C=N/NC(=O)c2cccc(C(=O)N/N=C/c3cc[n+](C)c4ccccc34)n2)c2ccccc21 | telomeric G4 DNA hybrid-2 | binding, fluorescence titration | 100 mM KCl buffer | pH 7.2, together with: labelled G4 DNA 2 nM | 0.0113 ± 0.001
Nc1ncnc2c1ncn2[C@@H]1O[C@H](CO)[C@@H](O[C@H]2O[C@H](CO)[C@@H](OP(=O)(O)O)[C@H](OP(=O)(O)O)[C@H]2O)[C@H]1O | Inositol 1,4,5-trisphosphate-gated calcium channel ITPR1, N-terminal region (Itpr1, Rattus norvegicus, UniProt P29994, del318-332/R504Q) | [3H]IP3 competition binding | – | N-terminal fragment R504Q | 0.345
C[C@H](NC(=O)[C@H](CCCCNCC(=O)O)NC(=O)[C@H](Cc1ccccc1)NC(=O)[C@H](CCC(=O)O)NC(=O)[C@@H](N)CC(=O)O)C(=O)N[C@@H](CC(=O)O)C(=O)N[C@@H](CCC(=O)O)C(=O)O | AGER (Homo sapiens, UniProt Q15109) | binding, fluorescence | – | pH 6.5 | 97
O=C(COCCc1ccccc1)N[C@@H](Cc1cn(CCNC(=O)c2ccc(S[C@@H]3O[C@H](CO)[C@H](O)[C@H](O)[C@H]3O)cc2)nn1)C(=O)NCCO | lecA | binding, ITC | – | – | 8.3
CC[C@H](C)[C@H](NC(=O)[C@H](CCCNC(=N)N)NC(=O)NC[C@H](CCC(N)=O)NC(=O)NC[C@H](CCc1ccccc1)NC(=O)NC[C@H](CCCNC(=N)N)NC(=O)NC[C@H](Cc1ccc2ccccc2c1)NC(=O)[C@H](CCCCN)NC(=O)[C@H](CCC(=O)O)NC(C)=O)C(=O)N[C@@H](C)C(N)=O | Histone chaperone ASF1A | binding, ITC | – | pH 7.5 | 15.4
CC[C@H](C)[C@H](NC(C)=O)C(=O)N[C@H]1CSSC[C@@H](C(=O)N[C@H](C(N)=O)[C@@H](C)O)NC(=O)[C@H](CCCNC(=N)N)NC(=O)[C@H](Cc2c[nH]cn2)NC(=O)[C@@H]2CCCN2C(=O)CNC(=O)[C@H](Cc2c[nH]c3ccccc23)NC(=O)[C@H](CC(=O)O)NC(=O)[C@H](CCC(N)=O)NC(=O)[C@H](Cc2cn(C)c3ccccc23)NC(=O)[C@H](C(C)C)NC1=O | Complement C3 | binding, ITC | – | pH 7.4 | 0.043
C[C@H](NC(=O)[C@H](Cc1ccccc1)NC(=O)c1ccc(C(F)(F)F)cc1)C(=O)N[C@H](C(=O)N[C@@H](CCCC[N+](C)(C)C)C(=O)N[C@@H](CO)C(N)=O)C1CCCC1 | Chromobox protein homolog 1 (Homo sapiens, UniProt P83916) | binding, ITC | – | – | 6.21
CCCC[N+](CCCC)(CCCC)Cc1ccc(C(=O)c2ccccc2)cc1 | Kcnma1 (Mus musculus, UniProt Q08460) | – | – | – | 9.5
N=C(N)NCCC[C@H](NC(=O)[C@@H]1CCCN1C(=O)[C@H](CC(N)=O)NC(=O)[C@H](CCCNC(=N)N)NC(=O)[C@@H]1CCCN1C(=O)[C@H](CCCCN)NC(=O)[C@H](CCCCN)NC(=O)[C@H](CCC(N)=O)NC(=O)[C@H](CC(=O)O)NC(=O)[C@@H](N)Cc1c[nH]c2ccccc12)C(=O)O | Neuropilin-1 (NRP1, Homo sapiens, UniProt O14786) | binding, ITC | – | pH 7.4 | 10
CC(=O)Oc1c(C)c(C)c2c(c1C)CC[C@](C)(CCC[C@@H](C)CCC[C@@H](C)CCCC(C)C)O2 (racemic) | PDK3 (Homo sapiens, UniProt Q15120) | binding, fluorescence quenching | – | pH 8.0, 25 °C | 0.231
CC(C)C[C@H](NC(=O)[C@H](CO)NC(=O)[C@@H](N)Cc1c[nH]c2ccccc12)C(=O)N[C@@H](CCC(=O)O)C(=O)N[C@H](C(=O)N[C@H](C(=O)N[C@@H](CCC(=O)O)C(=O)N[C@@H](C)C(=O)N[C@@H](CC(=O)O)C(=O)N[C@H](C(=O)O)[C@@H](C)O)[C@@H](C)OP(=O)(O)O)C(C)C | E3 ubiquitin-protein ligase pellino homolog 2 (PELI2, Homo sapiens, UniProt Q9HAT8) | – | – | – | > 100
C=CCO[C@@H]1C[C@@H](C(=O)N[C@@H](CCCNC(=N)N)C(=O)N[C@@H](CCCNC(=N)N)C(=O)N[C@@H](CCCNC(=N)N)C(N)=O)N(C(=O)[C@@H]2CCCN2C(=O)[C@@H](NC(=O)[C@@H]2C[C@H](OCC=C)CN2C(=O)[C@@H]2CCCN2C(=O)[C@@H]2CCCN2C(=O)[C@@H](NC(C)=O)C(C)C)C(C)C)C1 | Growth factor receptor-bound protein 2, N-terminal SH3 domain (GRB2, Homo sapiens, UniProt P62993) | binding, tryptophan fluorescence | PBS | 21 °C | 12.6 ± 0.98
CC[C@H](C)[C@H](NC(=O)[C@H](CCCNC(=N)N)NC(=O)NC[C@H](CCC(N)=O)NC(=O)NC[C@@H](NC(=O)NC[C@H](CCCNC(=N)N)NC(=O)NC[C@H](Cc1ccc2ccccc2c1)NC(=O)[C@H](CCCCN)NC(=O)[C@H](CCC(=O)O)NC(C)=O)C(c1ccccc1)c1ccccc1)C(=O)N[C@@H](C)C(N)=O | Histone chaperone ASF1A | binding, ITC | – | pH 7.5 | 7.9
CC(C)=CCC[C@](C)(O)[C@H]1CC[C@]2(C)[C@@H]1[C@H](O)C[C@@H]1[C@@]3(C)CC[C@H](O)C(C)(C)[C@@H]3CC[C@]12C | YWHAZ | binding, BLI | – | – | 45.2
CCOC(=O)C1=CN([C@@H]2O[C@H](CO)[C@@H](O)[C@H]2O)C=CC1 | SIRT5 (Homo sapiens, UniProt Q9NXA8) | binding, MST | – | – | 6.1
O=C(COc1ccc(F)cc1)N[C@@H](Cc1cn(CCNC(=O)c2ccc(S[C@@H]3O[C@H](CO)[C@H](O)[C@H](O)[C@H]3O)cc2)nn1)C(=O)NCCO | lecA | binding, SPR | – | – | 7.8
CN1CCN(Cc2ccc(NC(=O)Nc3ccc(Oc4cc(NC(=O)C5CC5)ncn4)cc3)cc2C(F)(F)F)CC1 | YWHAZ | binding | – | – | 2.29
COc1cc(-c2nc3ccc(C(=O)NCCCN(C)C)cc3n2C2CCC2)cc(OC)c1OC | ACVRL1 (Homo sapiens, UniProt P37023) | binding, TR-FRET | – | – | 0.0039
O=C(COCc1ccccc1)N[C@@H](Cc1cn(CCNC(=O)c2ccc(S[C@@H]3O[C@H](CO)[C@H](O)[C@H](O)[C@H]3O)cc2)nn1)C(=O)NCCO | lecA | binding, SPR | – | – | 6
CC1(C)[C@@H](O)CC[C@]2(C)[C@H]3C(=O)C=C4[C@@H]5C[C@@](C)(C(=O)NCCCN)CC[C@]5(C)CC[C@@]4(C)[C@]3(C)CC[C@@H]12 | SHMT2 (Homo sapiens, UniProt P34897) | – | – | – | 2.14
CC[C@H](C)[C@@H]1NC(=O)[C@H](Cc2ccc(O)cc2)NC(=O)[C@@H]2CCCN2C(=O)[C@H](CCCNC(=N)N)NC(=O)[C@@H](Cc2c[nH]c3ccccc23)NC(=O)CSC[C@@H](C(=O)NCC(N)=O)NC(=O)[C@H](C(C)C)NC(=O)[C@H]([C@@H](C)CC)NC(=O)[C@H](CC(C)C)NC(=O)[C@H](CCCNC(=N)N)NC(=O)CNC(=O)[C@H]([C@@H](C)O)NC(=O)[C@H](Cc2c[nH]c3ccccc23)NC(=O)[C@H](CCCNC(=N)N)NC(=O)[C@H](CCC(=O)O)NC1=O | Plexin-B1 (Plxnb1, Mus musculus, UniProt Q8CJH3) | surface plasmon resonance | – | – | 0.044
NC(=O)CN1C(=O)C(O)(CC(=O)c2cccc(N)c2)c2ccccc21 (stereo not shown) | uncharacterized protein (Leishmania donovani, UniProt A0A3Q8IA09) | competitive ITC | – | together with: glutamate 60 µM | 2
CC(C)[C@@H]1NC(=O)[C@@H](NC(=O)[C@@H](N)CCC(N)=O)CSSC[C@@H](C(=O)N[C@@H](Cc2c[nH]c3ccccc23)C(N)=O)NC(=O)[C@H](CCC(N)=O)NC(=O)[C@H](CC(N)=O)NC(=O)[C@H](CCC(N)=O)NC(=O)CNC(=O)[C@H](Cc2c[nH]c3ccccc23)NC(=O)[C@H](CC(=O)O)NC(=O)[C@H](CCC(N)=O)NC(=O)[C@H](Cc2c[nH]c3ccccc23)NC1=O | Complement C3 | surface plasmon resonance | – | 25 °C, 1:1 binding model | 0.5

Excerpt of the above:
SMILES | target | test | system | conditions | Kd [µM]
CC(C)=CCC[C@](C)(O)[C@H]1CC[C@]2(C)[C@@H]1[C@H](O)C[C@@H]1[C@@]3(C)CC[C@H](O)C(C)(C)[C@@H]3CC[C@]12C | YWHAZ | binding, BLI | – | – | 45.2
CC[C@H](C)[C@@H]1NC(=O)[C@H](Cc2ccc(OC)cc2)NC(=O)CC2(CCCCC2)SSC[C@@H](C(=O)N2CCC[C@H]2C(=O)N[C@@H](CCCN)C(=O)N[C@@H](Cc2ccc(O)c(I)c2)C(N)=O)NC(=O)[C@H](CC(N)=O)NC(=O)[C@H]([C@@H](C)O)NC1=O | Oxytocin receptor (OXTR, Homo sapiens, UniProt P30559) | binding, radioligand | – | cell membranes | 9.2e-05
Nc1ncnc2c1ncn2[C@@H]1O[C@H](CO)[C@@H](O[C@H]2O[C@H](CO)[C@@H](OP(=O)(O)O)[C@H](OP(=O)(O)O)[C@H]2O)[C@H]1O | Inositol 1,4,5-trisphosphate-gated calcium channel ITPR1, N-terminal region (Itpr1, Rattus norvegicus, UniProt P29994, del318-332/R504Q) | [3H]IP3 competition binding | – | N-terminal fragment R504Q | 0.345
CCOC(=O)C1=CN([C@@H]2O[C@H](CO)[C@@H](O)[C@H]2O)C=CC1 | SIRT5 (Homo sapiens, UniProt Q9NXA8) | binding, MST | – | – | 6.1
